Results gathered from unrelated publications.
Compare with care: the assays were run in different laboratories. Several values in a cell are separate wells, animals, samples, runs or records. Numbers after ± are the reported error.
Genome polyprotein NS2B-NS3 protease: Genome polyprotein, NS2B-NS3 protease (ZIKV, UniProt A0A024B7W1)
Proteasome component C5/PSMB5 chymotrypsin-like site: Proteasome component C5/PSMB5, chymotrypsin-like site (Homo sapiens, UniProt P20618+P28074)
Chain of UniProt P28074 (whole entry, looked up): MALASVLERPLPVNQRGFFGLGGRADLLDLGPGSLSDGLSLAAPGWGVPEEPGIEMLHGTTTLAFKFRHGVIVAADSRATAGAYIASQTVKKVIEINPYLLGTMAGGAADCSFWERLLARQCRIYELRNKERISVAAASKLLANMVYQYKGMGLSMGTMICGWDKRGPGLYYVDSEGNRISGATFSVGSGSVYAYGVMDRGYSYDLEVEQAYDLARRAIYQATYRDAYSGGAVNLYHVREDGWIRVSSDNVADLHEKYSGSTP
Chain of UniProt P20618 (whole entry, looked up): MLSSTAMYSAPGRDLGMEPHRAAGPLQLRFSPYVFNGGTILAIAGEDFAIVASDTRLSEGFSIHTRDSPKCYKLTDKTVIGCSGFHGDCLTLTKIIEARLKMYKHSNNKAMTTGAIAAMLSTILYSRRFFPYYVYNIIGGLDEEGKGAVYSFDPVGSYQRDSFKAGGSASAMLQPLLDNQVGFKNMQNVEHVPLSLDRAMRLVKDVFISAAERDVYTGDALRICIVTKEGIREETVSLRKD
topA: DNA topoisomerase 1 (topA, Escherichia coli, UniProt P06612)
Chain of UniProt P06612 (whole entry, looked up): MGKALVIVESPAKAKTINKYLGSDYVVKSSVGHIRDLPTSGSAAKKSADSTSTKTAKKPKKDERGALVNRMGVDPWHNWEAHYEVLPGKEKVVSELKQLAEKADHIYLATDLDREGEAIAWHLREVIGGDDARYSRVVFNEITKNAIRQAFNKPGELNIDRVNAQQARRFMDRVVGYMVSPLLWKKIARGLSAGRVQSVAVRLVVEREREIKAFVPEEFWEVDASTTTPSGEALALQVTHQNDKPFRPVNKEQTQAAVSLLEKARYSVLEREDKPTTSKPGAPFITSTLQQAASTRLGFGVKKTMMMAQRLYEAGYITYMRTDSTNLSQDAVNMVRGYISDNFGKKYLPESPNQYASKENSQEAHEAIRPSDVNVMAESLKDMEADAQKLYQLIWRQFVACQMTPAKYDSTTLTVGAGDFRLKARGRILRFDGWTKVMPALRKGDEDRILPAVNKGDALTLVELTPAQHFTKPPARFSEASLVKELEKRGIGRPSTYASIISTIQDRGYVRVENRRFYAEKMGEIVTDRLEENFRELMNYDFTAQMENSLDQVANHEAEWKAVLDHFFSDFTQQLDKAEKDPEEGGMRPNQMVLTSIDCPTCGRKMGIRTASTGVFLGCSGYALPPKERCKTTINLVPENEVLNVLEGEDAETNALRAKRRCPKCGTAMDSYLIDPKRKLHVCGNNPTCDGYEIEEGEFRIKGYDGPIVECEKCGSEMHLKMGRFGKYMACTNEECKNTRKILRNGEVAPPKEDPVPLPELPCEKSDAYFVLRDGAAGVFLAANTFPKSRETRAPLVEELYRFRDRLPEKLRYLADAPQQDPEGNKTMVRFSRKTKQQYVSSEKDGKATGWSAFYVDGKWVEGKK
Chain of UniProt Q8I6U4 (whole entry, looked up): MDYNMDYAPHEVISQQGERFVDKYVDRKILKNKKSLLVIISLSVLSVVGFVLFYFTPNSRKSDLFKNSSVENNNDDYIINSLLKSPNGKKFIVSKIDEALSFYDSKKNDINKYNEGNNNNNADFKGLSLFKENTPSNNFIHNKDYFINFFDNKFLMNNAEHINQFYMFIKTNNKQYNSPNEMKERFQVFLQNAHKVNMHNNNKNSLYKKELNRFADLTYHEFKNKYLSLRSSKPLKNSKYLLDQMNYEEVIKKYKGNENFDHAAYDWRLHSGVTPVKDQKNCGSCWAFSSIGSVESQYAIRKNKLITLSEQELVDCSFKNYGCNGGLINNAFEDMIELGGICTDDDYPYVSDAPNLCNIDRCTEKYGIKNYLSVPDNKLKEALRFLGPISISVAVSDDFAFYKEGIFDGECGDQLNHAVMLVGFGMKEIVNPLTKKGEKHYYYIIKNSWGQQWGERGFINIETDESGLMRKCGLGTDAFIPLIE
Chain of UniProt Q7NDN8 (whole entry, looked up): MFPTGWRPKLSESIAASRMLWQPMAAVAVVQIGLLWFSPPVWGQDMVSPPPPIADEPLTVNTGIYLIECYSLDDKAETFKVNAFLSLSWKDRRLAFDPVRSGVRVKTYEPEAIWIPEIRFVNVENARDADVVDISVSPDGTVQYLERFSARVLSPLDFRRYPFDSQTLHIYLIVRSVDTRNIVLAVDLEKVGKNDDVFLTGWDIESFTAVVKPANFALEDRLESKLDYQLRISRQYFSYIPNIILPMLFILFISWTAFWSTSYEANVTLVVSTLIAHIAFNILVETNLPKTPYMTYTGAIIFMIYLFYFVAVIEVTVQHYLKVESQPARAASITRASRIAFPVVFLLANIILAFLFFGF
Chain of UniProt Q6XEC0 (whole entry, looked up): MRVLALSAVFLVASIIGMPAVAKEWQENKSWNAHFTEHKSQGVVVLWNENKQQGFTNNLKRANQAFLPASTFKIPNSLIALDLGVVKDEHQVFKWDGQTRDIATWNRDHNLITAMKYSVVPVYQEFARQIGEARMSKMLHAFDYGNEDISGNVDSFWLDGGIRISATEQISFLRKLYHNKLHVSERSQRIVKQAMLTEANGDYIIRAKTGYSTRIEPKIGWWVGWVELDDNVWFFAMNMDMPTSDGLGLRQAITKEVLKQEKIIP
Chain of UniProt Q03431 (whole entry, looked up): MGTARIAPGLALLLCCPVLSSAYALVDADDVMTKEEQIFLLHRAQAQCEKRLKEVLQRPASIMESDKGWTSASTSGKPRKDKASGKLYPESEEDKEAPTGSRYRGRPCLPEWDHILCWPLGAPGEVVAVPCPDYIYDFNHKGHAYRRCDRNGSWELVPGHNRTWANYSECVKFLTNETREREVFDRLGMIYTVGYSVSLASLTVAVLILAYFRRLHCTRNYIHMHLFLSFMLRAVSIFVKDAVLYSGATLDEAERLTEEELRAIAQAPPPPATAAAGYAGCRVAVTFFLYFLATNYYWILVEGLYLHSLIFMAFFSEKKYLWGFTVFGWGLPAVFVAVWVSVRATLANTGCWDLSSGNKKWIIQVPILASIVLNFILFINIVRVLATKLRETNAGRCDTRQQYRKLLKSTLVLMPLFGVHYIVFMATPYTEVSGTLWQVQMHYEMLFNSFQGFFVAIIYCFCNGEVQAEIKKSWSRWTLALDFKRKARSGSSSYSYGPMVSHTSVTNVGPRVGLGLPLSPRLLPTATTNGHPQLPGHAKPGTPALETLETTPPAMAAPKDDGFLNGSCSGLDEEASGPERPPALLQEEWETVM
Chain of UniProt Q8VD00 (whole entry, looked up): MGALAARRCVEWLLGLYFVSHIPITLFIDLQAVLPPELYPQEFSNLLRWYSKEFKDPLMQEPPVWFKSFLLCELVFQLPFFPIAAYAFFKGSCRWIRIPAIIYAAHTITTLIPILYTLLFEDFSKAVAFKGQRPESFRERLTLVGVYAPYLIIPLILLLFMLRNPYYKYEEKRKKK
Chain of UniProt P23141 (whole entry, looked up): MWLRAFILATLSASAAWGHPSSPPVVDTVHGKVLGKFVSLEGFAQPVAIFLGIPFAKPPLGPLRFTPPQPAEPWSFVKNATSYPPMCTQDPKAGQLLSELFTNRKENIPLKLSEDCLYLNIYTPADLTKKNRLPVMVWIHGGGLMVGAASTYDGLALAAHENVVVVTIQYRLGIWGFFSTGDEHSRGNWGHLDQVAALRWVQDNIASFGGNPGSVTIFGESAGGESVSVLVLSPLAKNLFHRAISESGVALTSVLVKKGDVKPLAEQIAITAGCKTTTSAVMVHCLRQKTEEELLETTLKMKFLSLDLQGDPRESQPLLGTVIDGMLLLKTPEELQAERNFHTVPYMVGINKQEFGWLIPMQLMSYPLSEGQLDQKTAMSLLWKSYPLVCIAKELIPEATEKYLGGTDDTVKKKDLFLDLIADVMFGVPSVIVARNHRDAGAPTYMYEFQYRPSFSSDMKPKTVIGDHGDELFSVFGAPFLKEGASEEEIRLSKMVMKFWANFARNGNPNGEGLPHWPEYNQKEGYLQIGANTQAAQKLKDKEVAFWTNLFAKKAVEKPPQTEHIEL
Chain of UniProt P05804 (whole entry, looked up): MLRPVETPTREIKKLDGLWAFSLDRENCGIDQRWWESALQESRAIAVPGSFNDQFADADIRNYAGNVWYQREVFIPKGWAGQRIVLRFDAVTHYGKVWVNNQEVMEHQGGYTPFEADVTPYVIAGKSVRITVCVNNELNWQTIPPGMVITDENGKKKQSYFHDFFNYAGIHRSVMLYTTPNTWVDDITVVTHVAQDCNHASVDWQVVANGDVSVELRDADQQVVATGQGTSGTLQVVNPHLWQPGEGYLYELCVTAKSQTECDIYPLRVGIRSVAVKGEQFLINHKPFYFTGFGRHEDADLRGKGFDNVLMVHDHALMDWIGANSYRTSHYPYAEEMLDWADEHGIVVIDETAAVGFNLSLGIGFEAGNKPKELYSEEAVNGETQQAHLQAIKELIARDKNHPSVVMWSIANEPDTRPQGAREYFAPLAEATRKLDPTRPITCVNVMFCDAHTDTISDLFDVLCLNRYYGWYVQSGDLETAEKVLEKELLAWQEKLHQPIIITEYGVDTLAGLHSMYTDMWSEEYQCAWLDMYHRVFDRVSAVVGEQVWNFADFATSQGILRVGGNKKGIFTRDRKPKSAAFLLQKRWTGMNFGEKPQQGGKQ
Chain of UniProt Q06520 (whole entry, looked up): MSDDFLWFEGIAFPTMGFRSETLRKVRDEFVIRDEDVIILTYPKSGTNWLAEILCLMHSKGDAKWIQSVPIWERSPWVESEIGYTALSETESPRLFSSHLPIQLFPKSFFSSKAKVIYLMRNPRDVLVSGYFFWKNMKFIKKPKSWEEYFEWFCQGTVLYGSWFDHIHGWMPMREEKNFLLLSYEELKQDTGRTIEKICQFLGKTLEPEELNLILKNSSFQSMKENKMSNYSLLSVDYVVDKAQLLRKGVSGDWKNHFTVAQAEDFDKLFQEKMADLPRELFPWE
Chain of UniProt Q2FV99 (whole entry, looked up): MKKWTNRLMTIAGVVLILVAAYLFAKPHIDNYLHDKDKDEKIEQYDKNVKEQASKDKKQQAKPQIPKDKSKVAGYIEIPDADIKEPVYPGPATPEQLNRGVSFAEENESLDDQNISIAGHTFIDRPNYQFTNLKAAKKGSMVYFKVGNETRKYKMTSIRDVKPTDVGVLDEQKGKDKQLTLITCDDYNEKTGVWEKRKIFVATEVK

For `NC(=O)CI`, the IC50 was 36.5 µM (guanylate kinase (Plasmodium vivax); enzyme activity, inhibitor).
`CC12CCC3c4ccc(OS(N)(=O)=O)cc4CCC3C1CCC2=O` (stereo not drawn) gave an IC50 of 0.079 µM (Steryl-sulfatase (STS, Homo sapiens, UniProt P08842); enzyme activity, inhibitor; lysate).
The IC50 of `O=C(O)c1cc(-c2ccccc2Cl)n[nH]1` is reported as 0.303 ± 0.009 µM (Alkaline phosphatase, tissue-nonspecific isozyme (ALPL, Homo sapiens, UniProt P05186); enzyme activity, inhibitor, luminescence; together with: 50 µM CDP-star, 100 mM DEA).
For `CSCC[C@H](NC(=O)[C@H](CO)NC(=O)[C@H](CO)NC(=O)[C@H](CC(C)C)NC(=O)[C@H](Cc1c[nH]cn1)NC(=O)[C@H](CCCCN)NC(=O)[C@@H](Cc1c[nH]c2ccccc12)NC(=O)[C@H](CC(C)C)NC(=O)[C@H](CC(N)=O)NC(=O)[C@H](Cc1c[nH]cn1)NC(=O)[C@H](CCSC)NC(=O)[C@@H](N)Cc1ccccc1)C(=O)N[C@@H](CCC(=O)O)C(=O)N[C@@H](CCCNC(=N)N)C(=O)N[C@H](C(=O)N[C@@H](CCC(=O)O)C(=O)N[C@@H](Cc1c[nH]c2ccccc12)C(=O)N[C@@H](CC(C)C)C(=O)N[C@@H](CCCNC(=N)N)C(=O)N[C@@H](CCCCN)C(=O)N[C@@H](CCCCN)C(=O)N[C@@H](CC(C)C)C(=O)N[C@@H](CCC(N)=O)C(=O)N[C@@H](CC(=O)O)C(=O)N[C@H](C(=O)N[C@@H](Cc1c[nH]cn1)C(=O)N[C@@H](CC(N)=O)C(=O)N[C@@H](Cc1ccccc1)C(N)=O)C(C)C)C(C)C`, the IC50 was 0.00428 ± 0.00117 µM (Parathyroid hormone/parathyroid hormone-related peptide receptor (PTH1R, Homo sapiens, UniProt Q03431); cAMP generation, antagonist, GloSensor luciferase; SGS-72; together with: human PTH(1-34) 0.3 nM).
The IC50 of `O=[N+]([O-])c1ccc(OP(=O)(O)Oc2ccc([N+](=O)[O-])cc2)cc1` is reported as 0.24 ± 0.02 µM (Liver carboxylesterase 1 (CES1, Homo sapiens, UniProt P23141); enzyme activity, inhibitor; human liver microsomes; pH 6.5, 37 °C, together with: D-luciferin methyl ester).
`COc1ccc2c(c1)[nH]c1c(C)nccc12` gave an IC50 of 6.14 µM (Solute carrier family 22 member 2 (SLC22A2, Homo sapiens, UniProt O15244); transporter uptake, inhibitor, fluorescence).
`C/C=C1\NC(=O)[C@@H](NC(=O)[C@@H](NC(=O)[C@H](C)NC(=O)C/C(C)=C/Cl)[C@@H](C)CC)[C@@H](C)OC(=O)[C@H](C(C)C)NC(=O)[C@H](Cc2ccc(O)cc2)N(C)C(=O)[C@H](Cc2ccccc2)N2C(=O)[C@H](CC[C@H]2O)NC1=O` has an IC50 of 1.01 µM (Chymotrypsinogen B (Homo sapiens, UniProt P17538); enzyme activity, inhibitor, fluorescence; pH 7.4).
`NCc1ccc(-c2ccc(NCC3CCNCC3)nc2-c2ccc(-c3ccsc3)cc2)cc1` has an IC50 of 18.5 µM (Genome polyprotein NS2B-NS3 protease; inhibitor; Zika virus).
`NC(=O)c1ccc[n+](COCCOc2cccc3cccnc23)c1` has an IC50 of 10000 µM (ADP-ribosyl cyclase/cyclic ADP-ribose hydrolase 1 (CD38, Homo sapiens, UniProt P28907); NADase activity, inhibitor, coupled enzyme; 1 h, together with: 2 µM NAD).
`CC(C)C[C@H](NC(=O)[C@H](Cc1c[nH]c2ccccc12)NC(=O)[C@H](C)NC(=O)OCc1ccccc1)C(=O)C(=O)Nc1ccccc1` has an IC50 of 0.156 µM (Proteasome component C5/PSMB5 chymotrypsin-like site; enzyme activity in cells, inhibitor).
With `NCc1ccc(-c2ncc(OCC3CCCCC3)nc2-c2ccc(-c3ccoc3)cc2)cc1` the IC50 was 3.2 µM (Genome polyprotein NS2B-NS3 protease; inhibitor; Zika virus).
The IC50 of `[O-][n+]1c(CN2CCCCC2)nc2cccc3c2c1-c1ccccc1-3` is reported as 0.07 µM (Tumor protein 63, isoform gamma (TP63, Homo sapiens, UniProt Q9H3D4); DNA binding, complementation).
For `CC1(C)CCC(C)(C)c2cc(NC(=O)c3ccc(C(=O)O)cc3)ccc21`, the IC50 was greater than 250 µM (topA; enzyme activity, inhibitor).
The IC50 of `Fc1ccc(-n2cc(COc3ccnc4cc(Cl)ccc34)nn2)c(F)c1` is reported as 25.4 µM and 25 to 26 µM (FP2A (Plasmodium falciparum, UniProt Q8I6U4); enzyme activity, inhibitor, fluorescence; pH 5.5, with preincubation).
`COc1ccc(/C=C(\C#N)c2ccc([N+](=O)[O-])cc2)cc1` has an IC50 of greater than 250 µM (topA; enzyme activity, inhibitor).
`NCc1ccc(-c2ncc(OCC3CCNCC3)nc2-c2cn[nH]c2)cc1` has an IC50 of 5.8 µM (Genome polyprotein NS2B-NS3 protease; inhibitor; Zika virus).
For `N#CCCc1ccc2c(c1)-c1[nH]c3ccc([N+](=O)[O-])cc3c1CC(=O)N2`, the IC50 was 1.04 µM (Glycogen synthase kinase 3, short isoform (Leishmania infantum, UniProt A4HXQ3); enzyme activity, inhibitor; 90 min, 30 °C, together with: ATP 2 µM).
`C=C(NC(=O)C(=C)NC(=O)c1csc(C2=N[C@@H]3c4csc(n4)[C@H]4NC(=O)c5csc(n5)[C@H]([C@](C)(O)[C@@H](C)O)NC(=O)[C@H]5CSC(=N5)/C(=C/C)NC(=O)[C@H]([C@@H](C)O)NC(=O)c5csc(n5)[C@]3(CC2)NC(=O)[C@H](C)NC(=O)C(=C)NC(=O)[C@H](C)NC(=O)[C@H]([C@@H](C)CC)N[C@@H]2C=Cc3c([C@H](C)O)cc(nc3[C@H]2O)C(=O)O[C@@H]4C)n1)C(N)=O` has an IC50 of 1.02 ± 0.12 µM (Proteasome Macropain subunit MB1 (PSMB5, Homo sapiens, UniProt P28074); chymotrypsin-like activity, inhibitor; purified 20S proteasome; 15 min preincubation, 37 °C, together with: Suc-Leu-Leu-Val-Tyr-AMC substrate).
For `Cc1ccc2c(c1)C1CN(C)CCC1N2C(=O)CSc1nnnn1-c1ccc(Cl)cc1` (stereo not drawn), the IC50 was 1.38 µM (Sigma intracellular receptor 2 (Tmem97, Mus musculus, UniProt Q8VD00); ligand displacement, radioligand; pH 8, cell membranes).
`OC(c1cc(C(F)(F)F)nc2c(C(F)(F)F)cccc12)C1CCCCN1` (stereo not drawn) has an IC50 of 5.96 ± 1.53 µM (Beta-glucuronidase (uidA, Escherichia coli, UniProt P05804); enzyme activity, inhibitor; Escherichia coli live cells; 2 h, 37 °C).
With `Oc1ccc(-c2c[se]cc2-c2ccc(O)cc2)cc1` the IC50 was 0.475 µM (Estrogen receptor beta (ESR2, Homo sapiens, UniProt Q92731); antagonist; HEK293T; together with: estradiol 10 nM).
For `FCOC(C(F)(F)F)C(F)(F)F`, the IC50 was 150 µM (Proton-gated ion channel (glvI, Gloeobacter violaceus, UniProt Q7NDN8); pH 5.5).
For `OCCBr`, the IC50 was 11500 ± 400 µM (Cys-loop ligand-gated ion channel (Dickeya chrysanthemi, UniProt P0C7B7); ion current, inhibitor; Xenopus oocytes; together with: EC20 agonist).
`O=C(Nc1ccc2c(c1)S(=O)(=O)C=C2)c1cc(Cl)ccc1O` has an IC50 of 18.6 µM (Genome polyprotein, NS2B-NS3 interaction (dengue virus type 2, UniProt P29990); NS2B-NS3 interaction, inhibitor, split luciferase complementation; dengue virus 2).
The IC50 of `CN[C@H]1C(=O)N[C@@H]2Cc3ccc(cc3)Oc3cc4cc(c3O[C@@H]3O[C@H](C(=O)O)[C@@H](O)[C@H](O)[C@H]3NC(=O)CCCCCCCCC(C)C)Oc3ccc(cc3Cl)[C@@H](O)[C@@H]3NC(=O)[C@H](NC(=O)[C@@H]4NC(=O)[C@@H](NC2=O)c2cc(cc(O)c2Cl)Oc2cc1ccc2O)c1ccc(O)c(c1)-c1c(O[C@H]2O[C@H](CO)[C@@H](O)[C@H](O)[C@@H]2O)cc(O)cc1[C@@H](C(=O)NCCCN(C)C)NC3=O` is reported as 12.5 to 25 µM (CRISPR-associated endonuclease Cas9 (cas9, Staphylococcus aureus, UniProt J7RUA5); genome editing, inhibitor, PCR genotyping; Escherichia coli, MG1655; Staphylococcus aureus Cas9).
The IC50 of `C[C@@H]1NC(=O)[C@H](CCCNC(=N)N)NC(=O)[C@H]([C@@H](C)O)NC(=O)[C@@H](NC(=O)[C@H](CCC(N)=O)NC(=O)[C@H](Cc2ccccc2)NC(=O)[C@@H]2CCCN2)CSSC[C@@H](C(=O)N[C@H](C(=O)N[C@@H](CCCCN)C(=O)N[C@@H](CO)C(=O)O)[C@@H](C)O)NC(=O)[C@H](Cc2ccc(O)cc2)NC(=O)[C@H](Cc2ccc(O)cc2)NC(=O)[C@H](Cc2c[nH]c3ccccc23)NC(=O)CNC(=O)[C@H](CC(=O)O)NC(=O)[C@H](CCCNC(=N)N)NC1=O` is reported as greater than 100 µM (Activin receptor type-2B (ACVR2B, Homo sapiens, UniProt Q13705); reporter gene, antagonist, refers to: Smad2/3; HEK293T; 4 h, together with: GDF11 1 ng/mL).
The IC50 of `CC(C)c1ccc(O)c(=O)c(O)c1` is reported as roughly 0.15 µM (Gag-Pol polyprotein, reverse transcriptase RNase H (gag-pol, Human immunodeficiency virus 1, UniProt P03366)).
`NC[C@@H]1O[C@H](O[C@H]2[C@@H](O)[C@H](O[C@@H]3[C@@H](O)[C@H](N)C[C@H](N)[C@H]3O[C@H]3O[C@H](CN)[C@@H](O)[C@H](O)[C@H]3N)O[C@@H]2Cn2cc(CCCCc3cn(C[C@H]4O[C@@H](O[C@@H]5[C@@H](O)[C@H](N)C[C@H](N)[C@H]5O[C@H]5O[C@H](CN)[C@@H](O)[C@H](O)[C@H]5N)[C@H](O)[C@@H]4O[C@H]4O[C@@H](CN)[C@@H](O)[C@H](O)[C@H]4N)nn3)nn2)[C@H](N)[C@@H](O)[C@@H]1O` has an IC50 of 0.058 ± 0.006 µM (HIV-1 TAR RNA; Tat peptide binding, FRET competition; pH 7.4, 25 °C).
`Nc1ncnc2c1c(-c1cnc3[nH]ccc3c1)nn2C1CCCC1` has an IC50 of 0.03 µM (Mitogen-activated protein kinase kinase kinase 2 (MAP3K2, Homo sapiens, UniProt Q9Y2U5); ATPase activity, inhibitor, ADP detection).
For `CCC(CC)COC(=O)[C@H](C)N[P@](=O)(OC[C@H]1O[C@@](C#N)(c2ccc3c(N)ncnn23)[C@H](O)[C@@H]1O)Oc1ccccc1`, the IC50 was 5.5 ± 1.2 µM (Solute carrier organic anion transporter family member 1B3 (SLCO1B3, Homo sapiens, UniProt Q9NPD5); transport, inhibitor; 10 (unit not given), pre-incubation, together with: cholecystokinin).
With `Oc1ccc(-c2ccc(Cl)cc2Cl)cc1Cl` the IC50 was 4.9 µM (Sulfotransferase 2A1 (SULT2A1, Homo sapiens, UniProt Q06520); enzyme activity, inhibitor, radiometric; pH 7.4).
With `[I-].[Na+]` the IC50 was 14000 µM (Beta-lactamase OXA-48 (OXA-48, Klebsiella pneumoniae, UniProt Q6XEC0); enzyme activity, inhibitor; pH 7.2, with preincubation).
`CC1=NN(c2ccccc2)C(=S)/C1=C/Nc1ccccn1` gave an IC50 of less than 5 µM (srtA (Staphylococcus aureus, UniProt Q2FV99); enzyme activity, inhibitor).
`CC(C)C[C@H](NC(=O)[C@H](Cc1ccccc1)NC(=O)[C@H](CC1CCCCC1)NC(=O)OCc1ccccc1)C(=O)C(=O)Nc1ccccc1` has an IC50 of 0.603 µM (Proteasome component C5/PSMB5 chymotrypsin-like site; enzyme activity in cells, inhibitor).
`Clc1ccc(-c2nn3c(COc4cc(Cl)c(OCc5nnc6sc(-c7ccc(Cl)cc7)nn56)cc4Cl)nnc3s2)cc1` has an IC50 of 0.97 µM (Genome polyprotein NS2B-NS3 protease; enzyme activity, inhibitor; Zika virus; pH 8.0, together with: 20 µM Pyr-RTKR-AMC).
With `COP(=O)(OC)SCn1nnc2ccccc2c1=O` the IC50 was 0.19 µM (rat liver carboxylesterase; enzyme activity, inhibitor; rat, postnatal day 12, liver homogenate; together with: p-nitrophenyl valerate).

A few entries again:
`CC(C)C[C@H](NC(=O)[C@H](Cc1ccccc1)NC(=O)[C@H](CC1CCCCC1)NC(=O)OCc1ccccc1)C(=O)C(=O)Nc1ccccc1` has an IC50 of 0.603 µM (Proteasome component C5/PSMB5 chymotrypsin-like site; enzyme activity in cells, inhibitor).
With `Oc1ccc(-c2c[se]cc2-c2ccc(O)cc2)cc1` the IC50 was 0.475 µM (Estrogen receptor beta (ESR2, Homo sapiens, UniProt Q92731); antagonist; HEK293T; together with: estradiol 10 nM).
For `CCC(CC)COC(=O)[C@H](C)N[P@](=O)(OC[C@H]1O[C@@](C#N)(c2ccc3c(N)ncnn23)[C@H](O)[C@@H]1O)Oc1ccccc1`, the IC50 was 5.5 ± 1.2 µM (Solute carrier organic anion transporter family member 1B3 (SLCO1B3, Homo sapiens, UniProt Q9NPD5); transport, inhibitor; 10 (unit not given), pre-incubation, together with: cholecystokinin).
With `NCc1ccc(-c2ncc(OCC3CCCCC3)nc2-c2ccc(-c3ccoc3)cc2)cc1` the IC50 was 3.2 µM (Genome polyprotein NS2B-NS3 protease; inhibitor; Zika virus).
